Published values collected from several papers.
Each line is one published result; not all experiments were run side by side. Values joined by “and” are separate records of one study, mostly repeats; a detail may differ.
Technique: steady-state kinetics
B1: enzyme (Cannabis sativa, UniProt A0ABL6VS23); chain MARVELVFIPAPGIGHLVSTLEFAKRLIHYDHRLFITVLYMKFPFKSHLDAYIDSIVASLSLVHRIKLLHLPLVDSPPMELLKSIENFIYLYMESLVPHVRKALTDIVSSNSNYSQGDVVLVLDFFCMPMMDVANELGLPSYMFMTSNLGFLSLMFYLATRHNQISSELEESDAPLRLQGFQNPVPSSVLPTAAFCKDGGYSAYVKLAQRFRETKGIIVNSFEELESYSFSSMNDGAETPPIYMVGPVLDLNGQPHPSMDQVQNDKILKWLDEQPHSSVVFLCFGSMGRFGASQLREIASGLKRSGHRFLWSVRVQQPTTIDEILPEGFLEQIGSKGMICNEWAPQVKVLAHSAVGGFLSHCGWNSILESLWYGVPVATWPIYAEQQLNAFRMVREFGLAVDLRLDYKDRGDDHIVSAEEIETAVKHLMEGDSEVRKKVKEMSEMARKSVEEGGSSFTAIGKLINSIIGSNYY
B2: enzyme (Toxoplasma gondii, UniProt S8EY38); chain ARKTNIEAYRDGLKLKTEEDFFACDRQYVCQNYAPVPVVISKGKGARVWDINGNEYYDFLAGVSSLSQGHCHPRVIAALCRQAERLTLTLRAFGNDVTGPACRFMAEMFGYDRVLLMNTGAEAGESALKIARKWAYEVKEIPPDSAKVILCNNNYWGRTITACSSSTTFDCYNNFGPFTPGFELIDYDDVGALEEALKDPNVAAFFVEPIQGEGGVNVPKPGYLKRAHELCRSKNVLLIVDEIQTGLCRTGRLLAADHDEVHPDILLLGKSLSAGVVPISAVMGRADVMDVLKPGTHGSTFGGNPLACAVAVEALTVLKDEKLADRAERLGAQFRDCLRRELYGKVPWIKEIRGRGLLNAVEVDSDAIDPNDVVMKLKENGILSKPTRGRVMRFIPPLVITDEEHRDATTRIIKSFLAVEEERKK
B3: fabH (Escherichia coli, UniProt P0A6R0); chain MYTKIIGTGSYLPEQVRTNADLEKMVDTSDEWIVTRTGIRERHIAAPNETVSTMGFEAATRAIEMAGIEKDQIGLIVVATTSATHAFPSAACQIQSMLGIKGCPAFDVAAACAGFTYALSVADQYVKSGAVKYALVVGSDVLARTCDPTDRGTIIIFGDGAGAAVLAASEEPGIISTHLHADGSYGELLTLPNADRVNPENSIHLTMAGNEVFKVAVTELAHIVDETLAANNLDRSQLDWLVPHQANLRIISATAKKLGMSMDNVVVTLDRHGNTSAASVPCALDEAVRDGRIKPGQLVLLEAFGGGFTWGSALVRF
B4: CASP10 (Homo sapiens, UniProt Q92851); chain 1 VKTFLEALPQESWQNKHAGSNGNRATNGAPSLVSRGMQGASANTLNSETSTKRAAVYRMNRNHRGLCVIVNNHSFTSLKDRQGTHKDAEILSHVFQWLGFTVHIHNNVTKVEMEMVLQKQKCNPAHADGDCFVFCILTHGRFGAVYSSDEALIPIREIMSHFTALQCPRLAEKPKLFFIQACQGEEIQPSVSIEAD; chain 2 ALNPEQAPTSLQDSIPAEADFLLGLATVPGYVSFRHVEEGSWYIQSLCNHLKKLVPRMLKFLEKTMEIRGRKRTVWGAKQISATSLPTAISAQTPRPPMRRWSSVS
B5: UGT76G1 (Stevia rebaudiana, UniProt Q6VAB4); chain MENKTETTVRRRRRIILFPVPFQGHINPILQLANVLYSKGFSITIFHTNFNKPKTSNYPHFTFRFILDNDPQDERISNLPTHGPLAGMRIPIINEHGADELRRELELLMLASEEDEEVSCLITDALWYFAQSVADSLNLRRLVLMTSSLFNFHAHVSLPQFDELGYLDPDDKTRLEEQASGFPMLKVKDIKSAYSNWQILKEILGKMIKQTKASSGVIWNSFKELEESELETVIREIPAPSFLIPLPKHLTASSSSLLDHDRTVFQWLDQQPPSSVLYVSFGSTSEVDEKDFLEIARGLVDSKQSFLWVVRPGFVKGSTWVEPLPDGFLGERGRIVKWVPQQEVLAHGAIGAFWTHSGWNSTLESVCEGVPMIFSDFGLDQPLNARYMSDVLKVGVYLENGWERGEIANAIRRVMVDEEGEYIRQNARVLKQKADVSLMKGGSSYESLESLVSYISSL
B6: SLCO1B1 (Homo sapiens, UniProt Q9Y6L6); chain MDQNQHLNKTAEAQPSENKKTRYCNGLKMFLAALSLSFIAKTLGAIIMKSSIIHIERRFEISSSLVGFIDGSFEIGNLLVIVFVSYFGSKLHRPKLIGIGCFIMGIGGVLTALPHFFMGYYRYSKETNINSSENSTSTLSTCLINQILSLNRASPEIVGKGCLKESGSYMWIYVFMGNMLRGIGETPIVPLGLSYIDDFAKEGHSSLYLGILNAIAMIGPIIGFTLGSLFSKMYVDIGYVDLSTIRITPTDSRWVGAWWLNFLVSGLFSIISSIPFFFLPQTPNKPQKERKASLSLHVLETNDEKDQTANLTNQGKNITKNVTGFFQSFKSILTNPLYVMFVLLTLLQVSSYIGAFTYVFKYVEQQYGQPSSKANILLGVITIPIFASGMFLGGYIIKKFKLNTVGIAKFSCFTAVMSLSFYLLYFFILCENKSVAGLTMTYDGNNPVTSHRDVPLSYCNSDCNCDESQWEPVCGNNGITYISPCLAGCKSSSGNKKPIVFYNCSCLEVTGLQNRNYSAHLGECPRDDACTRKFYFFVAIQVLNLFFSALGGTSHVMLIVKIVQPELKSLALGFHSMVIRALGGILAPIYFGALIDTTCIKWSTNNCGTRGSCRTYNSTSFSRVYLGLSSMLRVSSLVLYIILIYAMKKKYQEKDINASENGSVMDEANLESLNKNKHFVPSAGADSETHC
B7: SIRT5 R105A (Homo sapiens, UniProt Q9NXA8); chain ARPSSSMADFRKFFAKAKHIVIISGAGVSAESGVPTFRGAGGYWRKWQAQDLATPLAFAHNPSRVWEFYHYAREVMGSKEPNAGHRAIAECETRLGKQGRRVVVITQNIDELHRKAGTKNLLEIHGSLFKTRCTSCGVVAENYKSPICPALSGKGAPEPGTQDASIPVEKLPRCEEAGCGGLLRPHVVWFGENLDPAILEEVDRELAHCDLCLVVGTSSVVYPAAMFAPQVAARGVPVAEFNTETTPATNRFRFHFQGPCGTTLPEALA
Sequence of UniProt P22310 (whole entry, looked up): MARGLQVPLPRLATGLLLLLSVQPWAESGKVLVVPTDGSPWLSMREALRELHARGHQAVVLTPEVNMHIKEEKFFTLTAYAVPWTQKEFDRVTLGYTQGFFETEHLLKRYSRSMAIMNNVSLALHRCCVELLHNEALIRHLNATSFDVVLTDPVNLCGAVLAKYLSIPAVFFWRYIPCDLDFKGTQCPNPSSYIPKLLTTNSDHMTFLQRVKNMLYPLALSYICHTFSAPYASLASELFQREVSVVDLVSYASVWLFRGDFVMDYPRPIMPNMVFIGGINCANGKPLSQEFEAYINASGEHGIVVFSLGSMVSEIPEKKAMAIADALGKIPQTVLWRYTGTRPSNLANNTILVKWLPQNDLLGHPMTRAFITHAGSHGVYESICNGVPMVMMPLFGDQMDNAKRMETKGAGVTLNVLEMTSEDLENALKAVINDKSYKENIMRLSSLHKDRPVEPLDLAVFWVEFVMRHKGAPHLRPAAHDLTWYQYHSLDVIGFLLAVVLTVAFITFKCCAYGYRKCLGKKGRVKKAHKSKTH
Sequence of UniProt O94956 (whole entry, looked up): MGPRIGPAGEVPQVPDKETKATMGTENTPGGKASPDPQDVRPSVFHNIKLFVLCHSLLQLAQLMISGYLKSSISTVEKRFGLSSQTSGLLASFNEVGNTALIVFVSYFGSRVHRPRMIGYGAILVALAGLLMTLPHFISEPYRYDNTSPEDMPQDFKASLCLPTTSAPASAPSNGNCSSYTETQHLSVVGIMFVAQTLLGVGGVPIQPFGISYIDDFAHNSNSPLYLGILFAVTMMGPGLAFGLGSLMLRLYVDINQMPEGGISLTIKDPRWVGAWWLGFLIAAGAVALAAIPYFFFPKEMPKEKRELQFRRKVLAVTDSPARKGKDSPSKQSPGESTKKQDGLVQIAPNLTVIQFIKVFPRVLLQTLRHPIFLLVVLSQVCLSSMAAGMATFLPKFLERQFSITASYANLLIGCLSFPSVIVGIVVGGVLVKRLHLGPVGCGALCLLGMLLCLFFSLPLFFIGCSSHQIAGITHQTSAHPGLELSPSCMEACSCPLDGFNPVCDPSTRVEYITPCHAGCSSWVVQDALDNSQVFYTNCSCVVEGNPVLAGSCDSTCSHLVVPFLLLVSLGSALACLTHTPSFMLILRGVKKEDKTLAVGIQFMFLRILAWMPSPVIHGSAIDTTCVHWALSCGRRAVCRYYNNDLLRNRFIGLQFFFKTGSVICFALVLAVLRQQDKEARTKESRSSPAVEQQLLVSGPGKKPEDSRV
Sequence of UniProt P17706 (whole entry, looked up): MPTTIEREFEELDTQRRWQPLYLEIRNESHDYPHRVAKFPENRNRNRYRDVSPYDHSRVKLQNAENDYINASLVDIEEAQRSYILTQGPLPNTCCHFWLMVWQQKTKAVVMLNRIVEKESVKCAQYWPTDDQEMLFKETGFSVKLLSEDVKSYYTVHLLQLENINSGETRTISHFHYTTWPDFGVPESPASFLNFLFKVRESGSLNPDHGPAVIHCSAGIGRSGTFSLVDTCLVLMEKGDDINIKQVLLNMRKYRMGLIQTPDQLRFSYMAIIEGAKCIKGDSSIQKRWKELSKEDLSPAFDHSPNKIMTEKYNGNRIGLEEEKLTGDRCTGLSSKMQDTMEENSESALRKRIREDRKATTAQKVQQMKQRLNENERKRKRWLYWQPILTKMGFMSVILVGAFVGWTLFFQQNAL
Sequence of UniProt O15438 (whole entry, looked up): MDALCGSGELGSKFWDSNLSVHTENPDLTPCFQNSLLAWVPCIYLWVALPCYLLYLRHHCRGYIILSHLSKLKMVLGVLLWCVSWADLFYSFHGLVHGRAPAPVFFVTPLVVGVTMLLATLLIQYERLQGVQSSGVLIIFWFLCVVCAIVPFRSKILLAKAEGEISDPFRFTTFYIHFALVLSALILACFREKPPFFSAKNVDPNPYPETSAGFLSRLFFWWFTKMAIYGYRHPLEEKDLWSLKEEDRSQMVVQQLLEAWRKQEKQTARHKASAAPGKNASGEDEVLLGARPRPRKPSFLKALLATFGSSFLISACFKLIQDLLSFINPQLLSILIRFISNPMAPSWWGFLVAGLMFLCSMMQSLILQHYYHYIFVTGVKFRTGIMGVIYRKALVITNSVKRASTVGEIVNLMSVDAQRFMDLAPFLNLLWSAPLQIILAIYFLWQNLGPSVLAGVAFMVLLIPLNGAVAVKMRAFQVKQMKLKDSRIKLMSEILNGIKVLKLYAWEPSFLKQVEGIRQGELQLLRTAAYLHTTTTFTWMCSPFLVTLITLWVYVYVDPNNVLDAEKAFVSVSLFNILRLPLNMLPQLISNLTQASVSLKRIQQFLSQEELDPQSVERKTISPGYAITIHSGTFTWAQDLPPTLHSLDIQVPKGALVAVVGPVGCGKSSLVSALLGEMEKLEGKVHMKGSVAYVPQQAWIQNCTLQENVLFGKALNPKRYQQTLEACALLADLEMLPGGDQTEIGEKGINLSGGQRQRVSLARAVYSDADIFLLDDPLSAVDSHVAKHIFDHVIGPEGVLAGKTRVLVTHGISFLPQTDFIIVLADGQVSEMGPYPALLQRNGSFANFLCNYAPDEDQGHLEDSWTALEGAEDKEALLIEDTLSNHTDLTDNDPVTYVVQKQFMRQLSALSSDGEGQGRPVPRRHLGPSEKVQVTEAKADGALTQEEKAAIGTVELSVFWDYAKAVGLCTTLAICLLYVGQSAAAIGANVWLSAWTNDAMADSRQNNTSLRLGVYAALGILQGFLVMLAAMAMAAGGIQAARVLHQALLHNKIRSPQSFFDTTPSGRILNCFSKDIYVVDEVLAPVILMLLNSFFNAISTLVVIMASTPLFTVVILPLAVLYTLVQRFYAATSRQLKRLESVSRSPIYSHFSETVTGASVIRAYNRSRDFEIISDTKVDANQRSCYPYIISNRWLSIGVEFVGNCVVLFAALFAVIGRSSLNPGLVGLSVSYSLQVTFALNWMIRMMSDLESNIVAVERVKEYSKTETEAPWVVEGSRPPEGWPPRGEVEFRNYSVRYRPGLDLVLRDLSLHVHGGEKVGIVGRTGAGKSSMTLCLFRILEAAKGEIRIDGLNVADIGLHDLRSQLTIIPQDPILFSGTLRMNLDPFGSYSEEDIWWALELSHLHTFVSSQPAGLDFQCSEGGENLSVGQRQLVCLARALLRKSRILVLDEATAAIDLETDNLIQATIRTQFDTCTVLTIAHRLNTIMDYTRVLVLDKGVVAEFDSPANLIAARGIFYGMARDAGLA

B1 (enzyme)
Km (O=c1ccn([C@@H]2O[C@H](CO[P@@](=O)(O)O[P@@](=O)(O)O[C@H]3O[C@H](CO)[C@@H](O)[C@H](O)[C@H]3O)[C@@H](O)[C@H]2O)c(=O)[nH]1; 30 °C): 17.4 µM

B2 (enzyme)
Km (NCCCC(=O)O; pH 8, 37 °C): 3770 µM

B3 (fabH)
Km (CC(=O)SCCNC(=O)CCNC(=O)[C@H](O)C(C)(C)COP(=O)(O)OP(=O)(O)OC[C@H]1O[C@@H](n2cnc3c(N)ncnc32)[C@H](O)[C@@H]1OP(=O)(O)O; together with: malonyl-ACP): 38.5 µM

UGT1A4 (Homo sapiens, UniProt P22310)
Km (CCCCN1C(=O)c2cccc3c(N4CCN(C)CC4)ccc(c23)C1=O; Michaelis-Menten, UGT1A4): 14.8 µM and 15 µM

ABCC3 (Homo sapiens, UniProt O15438)
Km (O=C(c1ccc(OCCN2CCCCC2)cc1)c1c(-c2ccc(O)cc2)sc2cc(O[C@@H]3O[C@H](C(=O)O)[C@@H](O)[C@H](O)[C@H]3O)ccc12; Sf9 vesicles; pH 7, 37 °C, not purified, together with: ATP): 3.92 µM

enzyme (Acinetobacter baumannii, UniProt V5V8V7)
Km (Nc1nc2c(ncn2[C@H]2C[C@H](OP(=O)(O)OP(=O)(O)O)[C@@H](COP(=O)(O)OP(=O)(O)O)O2)c(=O)[nH]1; pH 7.5, 30 °C): 332 µM

B4 (CASP10)
Km (CC[C@H](C)[C@H](NC(C)=O)C(=O)N[C@@H](CCC(=O)O)C(=O)N1CCC[C@H]1C(=O)N[C@@H](CC(=O)O)C(=O)Nc1ccc2c(C)cc(=O)oc2c1; 37 °C): 22.7 µM

B5 (UGT76G1)
Km (C=C1C[C@@]23CC[C@H]4[C@@](C)(CCC[C@@]4(C)C(=O)O[C@@H]4O[C@H](CO)[C@@H](O)[C@H](O)[C@H]4O[C@@H]4O[C@H](CO)[C@@H](O)[C@H](O)[C@H]4O)[C@@H]2CC[C@]1(O[C@@H]1O[C@H](CO)[C@@H](O)[C@H](O)[C@H]1O[C@@H]1O[C@H](CO)[C@@H](O)[C@H](O)[C@H]1O)C3; pH 7.25, 40 °C): 35.6 µM

PTPN2 (Homo sapiens, UniProt P17706)
Km (CC(C)[C@H](NC(=O)[C@H](CCC(=O)O)NC(=O)[C@H](CCC(=O)O)NC(=O)[C@@H]1Cc2ccc(O)cc2CN1C(=O)[C@H](CCC(=O)O)NC(=O)[C@H](CC(=O)O)NC(=O)[C@H](CC(=O)O)NC(=O)[C@H](CCC(=O)O)NC(=O)c1ccc2c(c1)C1(OC2=O)c2ccc(O)cc2Oc2cc(O)ccc21)C(N)=O; pH 9.5): 12.2 µM

B6 (SLCO1B1)
Km (O=C(c1ccc(OCCN2CCCCC2)cc1)c1c(-c2ccc(O)cc2)sc2cc(O[C@@H]3O[C@H](C(=O)O)[C@@H](O)[C@H](O)[C@H]3O)ccc12; HEK293 cells; pH 7.4, 37 °C): 48.8 µM

rCR (Lodderomyces parapsilosis, UniProt A1X808)
Km (CC(=O)c1cccc(Cl)c1; pH 7, 30 °C, together with: NADH 0.5 mM): 1310 µM

B7 (SIRT5 R105A)
Km (CSCC[C@H](NC(=O)[C@H](CC(C)C)NC(=O)[C@H](CCCCNC(C)=O)NC(=O)[C@H](CCCCN)NC(=O)[C@H](Cc1c[nH]cn1)NC(=O)[C@H](CCCNC(=N)N)NC(=O)[C@H](CO)NC(=O)[C@@H](NC(=O)[C@H](CO)NC(=O)[C@H](CCC(N)=O)NC(=O)CNC(=O)[C@H](CCCCN)NC(=O)[C@@H](N)CCCCN)[C@@H](C)O)C(=O)N[C@@H](Cc1ccccc1)C(=O)N[C@@H](CCCCN)C(=O)N[C@H](C(=O)N[C@@H](CCC(=O)O)C(=O)NCC(=O)O)[C@@H](C)O; pH 7.5, 37 °C, together with: saturating NAD+): 832 µM

SLCO2B1 (Homo sapiens, UniProt O94956)
Km (O=C(c1ccc(OCCN2CCCCC2)cc1)c1c(-c2ccc(O[C@@H]3O[C@H](C(=O)O)[C@@H](O)[C@H](O)[C@H]3O)cc2)sc2cc(O)ccc12; HEK293 cells; pH 7.4, 37 °C): 20.2 µM

Repeated from above:
B1 (enzyme)
Km (O=c1ccn([C@@H]2O[C@H](CO[P@@](=O)(O)O[P@@](=O)(O)O[C@H]3O[C@H](CO)[C@@H](O)[C@H](O)[C@H]3O)[C@@H](O)[C@H]2O)c(=O)[nH]1; 30 °C): 17.4 µM
